Results from different studies.
Numbered parts are unrelated; each lists some results of a single study.
Chain of UniProt P46734 (whole entry, looked up): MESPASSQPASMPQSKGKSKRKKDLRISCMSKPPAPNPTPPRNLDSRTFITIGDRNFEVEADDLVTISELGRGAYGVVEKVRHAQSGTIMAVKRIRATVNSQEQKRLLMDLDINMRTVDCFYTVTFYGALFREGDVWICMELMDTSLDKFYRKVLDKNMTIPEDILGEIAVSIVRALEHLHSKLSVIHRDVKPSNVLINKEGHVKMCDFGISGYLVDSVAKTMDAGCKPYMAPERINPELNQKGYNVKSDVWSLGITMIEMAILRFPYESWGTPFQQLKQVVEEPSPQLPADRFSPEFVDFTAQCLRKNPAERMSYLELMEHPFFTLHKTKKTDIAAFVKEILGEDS

Series 1
Target: Serine/threonine-protein kinase 25 (STK25, Homo sapiens, UniProt O00506)
Chain of UniProt O00506 (whole entry, looked up): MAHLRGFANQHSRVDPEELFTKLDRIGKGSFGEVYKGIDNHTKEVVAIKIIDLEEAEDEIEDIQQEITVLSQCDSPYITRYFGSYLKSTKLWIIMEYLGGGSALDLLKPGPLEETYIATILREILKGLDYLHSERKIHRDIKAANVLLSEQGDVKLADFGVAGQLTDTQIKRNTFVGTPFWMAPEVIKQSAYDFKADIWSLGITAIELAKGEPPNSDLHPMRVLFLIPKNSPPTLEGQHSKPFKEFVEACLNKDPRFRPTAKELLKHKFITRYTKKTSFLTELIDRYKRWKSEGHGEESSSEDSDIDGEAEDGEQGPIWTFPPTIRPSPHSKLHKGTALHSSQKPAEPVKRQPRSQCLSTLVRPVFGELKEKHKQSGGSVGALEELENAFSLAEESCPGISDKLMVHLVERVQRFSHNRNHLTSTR
Read-out: enzyme activity
Action: inhibitor
Concentration: 0.5 µM
Reference: control
Measurement: remaining activity
CCCC(=O)Oc1ccc2[nH]c(C(=O)c3cc4ccccc4[nH]3)cc2c1: 94.5%
COc1cc(Nc2c(C#N)cnc3cc(OCCCN4CCN(C)CC4)c(OC)cc23)c(Cl)cc1Cl: 10.1%
CC(C)(C)n1nc(Cc2cccc3ccccc23)c2c(N)ncnc21: 93%
Cc1cc(Nc2nc(-c3ccccc3)nc3ccccc23)n[nH]1: 86.7%
NC(=O)c1ccc(N(C(N)=O)c2c(F)cccc2F)nc1-c1ccc(F)cc1F: 97.1%
N#CC(=C(N)Sc1ccc(N)cc1)c1ccccc1C(F)(F)F: 114%
Nc1nccc(-c2c(-c3ccc(F)cc3)ncn2C2CCNCC2)n1: 99.8%
CC#CC(=O)Nc1cc2c(Nc3ccc(F)c(Cl)c3)ncnc2cn1: 97.1%
O=C1NC(=O)C(c2c[nH]c3ccccc23)=C1c1c[nH]c2ccccc12: 78.3%
CC(=O)c1ccc(N2CCOCC2)cc1O: 90.9%
O=C1Cc2c([nH]c3ccc([N+](=O)[O-])cc23)-c2ccccc2N1: 83.6%
Nc1nc(Nc2ccc(S(N)(=O)=O)cc2)nn1C(=O)c1c(F)cccc1F: 82.3%
CC[n+]1c(/C=C/N(C)c2ccccc2)n(-c2ccccc2)c2ccc(-c3nc4ccccc4s3)cc21: 96.5%

Series 2
Species: mouse
Sample: microsomes or S9
Concentration: 2 µM
Time: 0.5 h
Measurement: remaining compound
COc1ccc(/C=N/n2cnnc2)cc1COc1cc(C)c(Cl)cc1C(C)C: > 100%
c1ccc(C(CNc2ccc3nnnn3n2)c2c[nH]c3ccccc23)cc1 (centres unmarked): 2.96%
Fc1ccc(-n2cc(C3CCCCN3)nn2)cc1Cl (centres unmarked): 76.2%
Brc1ccc2c(c1)C1CC(c3ccco3)=NN1C(c1ccncc1)O2 (centres unmarked): 25%
Cc1ccccc1-c1nc2ccccc2cc1C(C)Nc1ncnc(Cl)c1N (centres unmarked): 31.6%
Cc1ccc(S(=O)(=O)n2cc(Br)c3c(N4CCC(O)CC4)ncnc32)cc1: 2.53%
O=C(NCCc1ccccc1)Nc1cnc(O)nc1O: 90.2%
CC(C)n1cc(NC(=O)C2(C)Oc3ccccc3NC2=O)cn1 (centres unmarked): 95.2%
Cc1ccc(Cl)cc1N1CCN(C(=O)C2CCCN(S(=O)(=O)c3ccccc3)C2)CC1 (centres unmarked): 21.3%
CCCC1CN(CC(=O)N(C(C)C)C(C)C)CCN1CC(=O)N(C(C)C)C(C)C (centres unmarked): 7.05%
Cc1cccc(-n2nc(-c3cnn(C)c3C)c(Cl)c2-c2cnn(C)c2C)c1: 2.74%
Cc1ccc2c(c1)NC(=O)c1cc(S(=O)(=O)N(C)C)c(Oc3ccccc3Br)cc1O2: 0.224%
O=C(Cn1cc(-c2ccccc2)ncc1=O)NCCn1ccc2ccc(Br)cc21: 3.62%
Cc1ccc2c(c1)c(=O)n(C)c1nnc(CNC(C)c3ncc(C)s3)n21 (centres unmarked): 59.6%
Cn1ncc2cc(C(=O)Nc3ccn(Cc4ccncc4)n3)cc(O)c21: > 100%
CC(C)S(=O)(=O)CCCn1cc(Br)ccc1=O: 81.1%

Mixed results
Cc1cc(Nc2nccc(C)n2)cc(-c2cnc([C@@]3(O)CC[C@H](C(=O)O)C(C)(C)C3)s2)c1  remaining binding (Dual specificity mitogen-activated protein kinase kinase 3 (MAP2K3, Homo sapiens, UniProt P46734); binding, competition with immobilised ligand; 1 µM): 29.5%
CC(C)n1cnc(-c2ccc(F)cc2)c1-c1ncc(C(=O)Nc2ccc(N3CCN(C)CC3)cc2)[nH]1  mean hospitalized days (idiopathic pulmonary fibrosis patients; 60 mg once daily, acute exacerbation hospitalization): 23.3 days
CN(C)[C@H]1CCN(c2cc(-c3ccccc3)nc3ccnn23)C1  viability (normal-adjacent organoid sample D; CellTiter-Glo; 1 µM, replicate mean; reference: DMSO): 116%

For quick reference, copied from above (series 1):
NC(=O)c1ccc(N(C(N)=O)c2c(F)cccc2F)nc1-c1ccc(F)cc1F: 97.1%
N#CC(=C(N)Sc1ccc(N)cc1)c1ccccc1C(F)(F)F: 114%
Nc1nccc(-c2c(-c3ccc(F)cc3)ncn2C2CCNCC2)n1: 99.8%
CC#CC(=O)Nc1cc2c(Nc3ccc(F)c(Cl)c3)ncnc2cn1: 97.1%
O=C1NC(=O)C(c2c[nH]c3ccccc23)=C1c1c[nH]c2ccccc12: 78.3%
